Published values gathered from unrelated publications.
Parts stem from different laboratories: compare values within a part only.

Block 1
Target: Sal-like protein 4, full length isoform A (SALL4, Homo sapiens, UniProt Q9UJQ4, residues 1-1053)
UniProt Q9UJQ4, sequence (whole entry, looked up): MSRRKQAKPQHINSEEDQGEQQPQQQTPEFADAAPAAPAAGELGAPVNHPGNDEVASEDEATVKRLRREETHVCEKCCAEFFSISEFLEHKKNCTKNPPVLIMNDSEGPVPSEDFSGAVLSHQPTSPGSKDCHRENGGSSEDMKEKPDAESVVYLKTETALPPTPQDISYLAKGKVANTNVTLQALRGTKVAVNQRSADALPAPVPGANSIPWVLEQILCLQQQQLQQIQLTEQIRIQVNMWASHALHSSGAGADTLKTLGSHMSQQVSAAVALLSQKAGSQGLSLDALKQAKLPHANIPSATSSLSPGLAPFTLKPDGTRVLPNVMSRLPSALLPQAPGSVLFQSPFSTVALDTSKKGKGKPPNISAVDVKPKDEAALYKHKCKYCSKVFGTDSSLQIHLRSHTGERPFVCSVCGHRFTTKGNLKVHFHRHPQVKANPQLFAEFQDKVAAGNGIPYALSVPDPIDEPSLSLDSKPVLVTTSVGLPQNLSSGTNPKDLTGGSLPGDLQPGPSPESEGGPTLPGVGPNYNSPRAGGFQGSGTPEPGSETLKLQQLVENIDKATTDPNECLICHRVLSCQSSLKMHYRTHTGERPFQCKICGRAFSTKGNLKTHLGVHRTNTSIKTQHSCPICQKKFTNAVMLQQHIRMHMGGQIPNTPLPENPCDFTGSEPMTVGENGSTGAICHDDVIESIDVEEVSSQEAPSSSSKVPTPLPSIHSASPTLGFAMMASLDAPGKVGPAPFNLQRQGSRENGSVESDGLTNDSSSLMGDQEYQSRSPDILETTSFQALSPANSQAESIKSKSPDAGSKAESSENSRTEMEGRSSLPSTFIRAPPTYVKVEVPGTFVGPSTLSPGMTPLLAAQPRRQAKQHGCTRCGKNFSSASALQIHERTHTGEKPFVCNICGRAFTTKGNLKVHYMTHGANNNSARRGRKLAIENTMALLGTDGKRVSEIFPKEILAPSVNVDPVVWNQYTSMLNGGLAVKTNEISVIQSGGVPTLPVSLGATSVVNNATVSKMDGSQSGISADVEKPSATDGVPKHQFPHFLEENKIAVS
Method: universal PBM
Form: double-stranded DNA, one strand shown
Sample: in vitro
Concentration: 600 nM
Setting: 8-mer, flanks averaged, mean of replicates
Direction: higher = stronger binding
Strand | E-score
CAGACTCG | -0.0812
CCGGGCAA | -0.329
CGCTCTCC | -0.327
CTGTAACC | -0.00983
CTCGTATA | 0.103
CACACATA | 0.193
GTACCCAA | -0.189
AATGGGTG | -0.0307
AACCTATT | 0.0948
ACAGGAGT | 0.00958
AAACACCT | -0.0291
CGCCTGTA | -0.107
CAGCCTCC | -0.338
ATCAACCG | -0.0713
TATGATCA | 0.297
CACTGAAC | 0.0599
TCGTCCAA | 0.0843
GATGCACA | 0.0356
AAGGTTTA | 0.0619
CGAGAAAC | -0.0952
ACTTGCCC | -0.154
CGTCCGGC | -0.28
CCAGACTC | -0.192
AACCGTAC | -0.0364
CCAAGAAC | -0.162

Block 2
Target: Histone acetyltransferase KAT6A, both winged helices, GST fusion (KAT6A, Homo sapiens, UniProt Q92794, residues 1-181)
Method: protein binding microarray
Form: double-stranded DNA, one strand shown
Sample: in vitro
Concentration: not given
Setting: 8-mer, flanks averaged, mean of 2 arrays, mostly near background
Reference: not given
Direction: higher = stronger binding
Construct (chain): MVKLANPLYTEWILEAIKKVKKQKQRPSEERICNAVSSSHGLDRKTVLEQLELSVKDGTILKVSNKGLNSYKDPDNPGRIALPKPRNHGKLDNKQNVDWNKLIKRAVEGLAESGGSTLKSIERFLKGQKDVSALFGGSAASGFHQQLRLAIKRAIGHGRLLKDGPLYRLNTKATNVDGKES
Strand | E-score
GTCACTAA | -0.242
CTGCTTGA | -0.203
GAGGAATC | -0.0137
AGTCAAAA | -0.0611
GAGCACCC | 0.0885
CCTACCCC | -0.148
TGCGGCCA | 0.0965
GACGGGGC | 0.134
ATTTACGG | 0.2
AGTAATGA | -0.124
AAGTTAGC | -0.0863
AGCCGAGC | 0.162
CTCCTGGC | 0.0337
AGTCAGAT | -0.0964
CCATGCAA | -0.0751
CCTCTTAA | -0.09
CGCGTCAC | 0.245

Block 3
Target: RNA binding protein fox-1 homolog 2, RRM domain, GST-SBP tag (RBFOX2, Homo sapiens, UniProt O43251-10, residues 100-194)
Method: RNA Bind-n-Seq
Form: RNA
Sample: in vitro
Concentration: 365 nM
Setting: natural RNA segment, single round, ends assumed
Reference: no-protein control
Direction: higher = stronger binding
All sequences stand within: GGGAGUUCUACAGUCCGACGAUC … UGGAAUUCUCGGGUGCCAA
Construct (chain): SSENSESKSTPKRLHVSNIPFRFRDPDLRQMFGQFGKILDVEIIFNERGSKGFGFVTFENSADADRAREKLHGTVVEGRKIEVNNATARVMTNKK
Strand | RBNS enrichment (R)
UGCUUGUCCUUAUCCCUGCUUGGACACCUGAGCAUCAGAUCCCUGUGCCCCUGGUGCCAUCUGGCCUGGCUGGAGCCAGGAACAAGAGGUCACCCCACCCUAGAAUCCGC | 0.287
GGUCGCCUUGUUGGUUCUGAGCCCUGGGGCUCUGACUUCUGGAUGUGCAUGUAGAACACAAGAAGACCCUUUUCUUCUGGAUCCUCUGCUAGCUACCAUCUAAACUGUCC | 2.34
CCAGGGUCCCAGCUGGCUGGGUCCUCUUCUGCCCCCAGUGCCCUUCCCCUUGGGCUGUGUUGGAGUGAGCACCUCCUCUGUAGGCACCUCUCACACUGUUGUCUGUUACU | 0.963
GACCAAUAAAUAUAAAAUAUGGUAAUUGGAAUUAACUCCACACCAUAGUAUGCAUUGUUAUACAUACUGUGUACCUAAUUAUGUAUAGCAGUGUAGUCUCAAUUAUAUCU | 0.288
UUAUACUGUAAAUUAUGCAUUAUAAAGAGUUCAUUUAAGGAAAAUUACUUGGUACAAUAAUUAUUGUAAUUAAGAGAUGUAGCCUUUAUUAAAAUUUUAUAUUUUUCAAA | 1.23
AAAGUAGGACAUGUGCAGUCCCACCUGCAUCCAGUGUGGCUCUCUCCAUGGAGACUUGCUCUUCUUCUGCCCUGGACAUGUGGGGAGCUCCCGCUUCCACCCCCACUGUC | 0.413
UUAUUUAAUAAUUAGCACACCCUGAUCUGGCUUCUUUGCUUGCUUUUCUUUGGAUCCCUGUCCAAUAACCUCUGUGGAAUCUCAUUCCCUAAUUGUUGAUACUCAUUUUC | 1.68
GAUCGGGGCCAGAGGCAGAACCCUGGUGAGGAAGCUCCAGUCCUGCUCUCUACCCAGCCCAUCUUGCCUCCAUGGUGCCUCUGGAGGCCUCUGGGCCUCCUCUAACAGGG | 0.286

Block 4
Target: Fragile X messenger ribonucleoprotein 1, C-terminal low-complexity region (Fmr1, Mus musculus, UniProt P35922)
Method: RNA Bind-n-Seq
Form: RNA
Sample: in vitro
Concentration: 200 nM
Setting: whole 134-nt RNA, ends assumed
Added: 150 mM LiCl
Reference: input library
Direction: higher = stronger binding
All molecules: 7-deaza-guanosine replaces G
All sequences stand within: GGGAGUUCUACAGUCCGACGAUC … UGGAAUUCUCGGGUGUCAAGG
Strand | log2 enrichment
ACCAUGCAGGUGGGCAUCUUUGGGAAGUGGGGCAAGGGGGGGAUAGGGAGGGGGGUAACACUUUGGGAACAGGUGGUCGCAGGUCGUUUC | 1.12
CUUUGUAAUGGGAACUGCCUCUUUCCUGUUGUUGUUAAUGAAAAUGUCAGAAACCAGUUAUGUGAAUGAUCUCUCUGAAUCCUAAGGGCU | -0.856
AAGUCCUGUGCUACACAUCGUAUGUACCGAAUCGGGAGGGAAAAAAAGGGUUUGGGAAAGUAUUAUGUUACGCCGUUCGGAUCUGCACUU | -2.5
UCAUGUAUAGACAACGCCAUUAUUGACGAGAUCACUCCCAAGCGGAUUGGAGAUUGUCCCAAUAUUUAGACCUAUAGCAAGGCCUUGGGA | -0.231
CUCAAGUCCUGUGCUACACAUCGUAUGUACCGAAUCGGUUUUUUUGGAGGUGGAAAGUAUUAUGUUACGCCGUUCGGAUCUGCACUUCCA | 0.0768
GUCCUGUGCUACACAUCGUAUGUACCGAAUCGGGUUUUUGGGGUUUUUGGGUUUUUGGGAAAGUAUUAUGUUACGCCGUUCGGAUCUGCA | -1.03
GUCCUGUGCUACACAUCGUAUGUACCGAAUCGGGGUGGGGAAAAAAAGGGGAAAGGGGAAAGUAUUAUGUUACGCCGUUCGGAUCUGCAC | 0.844
AGUCCUGUGCUACACAUCGUAUGUACCGAAUCGGCCCCCGGCCCCCGGCCCCCGGGGAAAGUAUUAUGUUACGCCGUUCGGAUCUGCACU | -0.28

A few entries again (block 1):
Strand | E-score
AATGGGTG | -0.0307
AACCTATT | 0.0948
ACAGGAGT | 0.00958
AAACACCT | -0.0291
CGCCTGTA | -0.107
CAGCCTCC | -0.338
ATCAACCG | -0.0713
TATGATCA | 0.297
CACTGAAC | 0.0599
